# Assay results of several laboratories.
# Lines come from different studies, so protocols differ. “And” joins repeats or separate records; there may be more than shown. Numbers after ± are the reported error.
SMILES,test,test system,conditions,scale,measurement,value
COC1CN([C@H]2CC[C@H]([C@@]3(C)Oc4c(Cl)cc(C(=O)NCc5c(SC)cc(C)[nH]c5=O)c(C)c4O3)CC2)C1,"RNA-seq, refers to: PDGFRL","human, whole blood","dose not given, 24 h",baseline: pretreatment baseline,log2 fold change,4.88
Cc1ncsc1-c1ccc(CNC(=O)[C@@H]2C[C@@H](O)CN2C(=O)[C@@H](NC(=O)COCC(C)(COCCOCCOCCNC(=O)C[C@@H]2N=C(c3ccc(Cl)cc3)c3c(sc(C)c3C)-n3c(C)nnc32)COCCOCCOCCNC(=O)C[C@@H]2N=C(c3ccc(Cl)cc3)c3c(sc(C)c3C)-n3c(C)nnc32)C(C)(C)C)cc1,,male C57BL/6 mice,"intravenous, 5 mg/kg, 30 min",,plasma concentration,11100 ng/mL and 8150 ng/mL
Cc1noc(C)c1Cn1cc(N2C(=O)CN(Cc3cccc(O[C@@H]4O[C@H](C(=O)O)[C@@H](O)[C@H](O)[C@H]4O)c3)C2=O)cn1,,"rat Sprague-Dawley male, plasma","oral, 100 mg/kg of parent drug, 2 h",,plasma concentration,74.1 ± 29.3 ng/mL
C=C[C@]1(C)C[C@@H](OC(=O)CSc2ccc(NC(=O)c3ccco3)cc2)[C@]2(C)[C@H](C)CC[C@]3(CCC(=O)[C@H]32)[C@@H](C)[C@@H]1O,,"Mycoplasma gallisepticum-infected chickens, plasma","intramuscular, 5 mg/kg, 0.5 h",,plasma concentration,666 ng/mL and 499 ng/mL and 557 ng/mL and 658 ng/mL and 751 ng/mL and 624 ng/mL and 640 ng/mL and 573 ng/mL
CC(=O)N[C@H](CC(=O)O)C(=O)N[C@H](Cc1c[nH]c2ccccc12)C(=O)N[C@H](Cc1ccccc1)C(=O)N[C@H](CCCCN)C(=O)N[C@H](C)C(=O)N[C@H](Cc1ccccc1)C(=O)N[C@H](Cc1ccc(O)cc1)C(=O)N[C@H](CC(=O)O)C(=O)N[C@H](CCCCN)C(=O)N[C@@H](C(=O)N[C@H](C)C(=O)N[C@H](CCC(=O)O)C(=O)N[C@H](CCCCN)C(=O)N[C@H](Cc1ccccc1)C(=O)N[C@H](CCCCN)C(=O)N[C@H](CCC(=O)O)C(=O)N[C@H](C)C(=O)N[C@H](Cc1ccccc1)C(N)=O)C(C)C,,"human, plasma","oral, 500 mg daily, 1 h post-dose, day 13",,plasma concentration,433 ng/mL
Cc1noc(C)c1Cn1cc(N2C(=O)CN(Cc3cccc(OS(=O)(=O)O)c3)C2=O)cn1,,"rat Sprague-Dawley male, plasma","intravenous, 1 mg/kg of parent drug, 4 h",,plasma concentration,268 ng/mL
Cc1cccc(Cn2ncc3c4cc(F)c(CN(C)C)cc4n(C)c3c2=O)n1,,"Dutch-belted rabbit, plasma","intravitreal, 1 µM vitreous, 28.00 days",,plasma concentration,2.13 ng/mL
COc1ccc2c(c1)CN(C(=O)CCN1CCC(Cc3ccccc3)CC1)CCS2,,"paroxysmal atrial fibrillation patients, plasma","oral, 540 mg, 120 min",,plasma concentration,333 ± 100 ng/mL
Cc1nn(-c2nc3c(F)cc(F)cc3s2)c(O)c1C(c1ccc(C(F)(F)F)cc1)c1c(C)nn(-c2nc3c(F)cc(F)cc3s2)c1O,,ICR mouse,"intravenous, 5 mg/kg, 0.25 h",,plasma concentration,8140 ng/mL and 12700 ng/mL and 16800 ng/mL
C[C@]12C[C@H](c3ccc(S(C)(=O)=O)cc3)C3=C4CCC(=O)C=C4CC[C@H]3[C@@H]1CC[C@@]2(O)C(F)(F)C(F)(F)F,refers to: compound (parent),"healthy human volunteers, pooled plasma","oral, 5 mg daily, day 28, 24 h",,plasma concentration,12.2 ng/mL
CCCC[C@H](OC(C)=O)c1ccccc1C(=O)O,,"beagle dog, both sexes, whole blood","intravenous, 1.5 mg/kg, 1 min, day 7",,plasma concentration,5970 ± 924 ng/mL

# Excerpt of the above:
SMILES,test,test system,conditions,scale,measurement,value
Cc1noc(C)c1Cn1cc(N2C(=O)CN(Cc3cccc(OS(=O)(=O)O)c3)C2=O)cn1,,"rat Sprague-Dawley male, plasma","intravenous, 1 mg/kg of parent drug, 4 h",,plasma concentration,268 ng/mL
